Measured values pooled from the literature.
Numbered parts are unrelated; each lists some results of a single study.

Sample 1
Target: Microphthalmia-associated transcription factor, full length (MITF, Homo sapiens, UniProt O75030-10, residues 1-413)
Technique: protein-binding microarray
Form: double-stranded DNA, one strand shown
Sample: in vitro
Tested at: not given
Setting: k-mer, scored over probes, only values ≥0.25
Direction: higher = stronger binding
Endpoint: E-score
Target sequence (chain): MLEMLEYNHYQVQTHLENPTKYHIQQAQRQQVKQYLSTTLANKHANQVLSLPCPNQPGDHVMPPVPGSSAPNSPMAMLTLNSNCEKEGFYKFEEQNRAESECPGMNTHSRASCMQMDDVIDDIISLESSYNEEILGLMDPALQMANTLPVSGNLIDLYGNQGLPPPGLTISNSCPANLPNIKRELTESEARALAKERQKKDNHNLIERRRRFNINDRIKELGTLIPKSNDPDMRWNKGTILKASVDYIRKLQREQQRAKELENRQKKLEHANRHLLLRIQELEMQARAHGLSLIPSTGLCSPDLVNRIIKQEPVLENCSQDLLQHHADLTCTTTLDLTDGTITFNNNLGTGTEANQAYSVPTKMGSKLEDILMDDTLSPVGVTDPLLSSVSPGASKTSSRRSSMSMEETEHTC
CCCCACG: 0.297
CATGATC: 0.356
CATGGGA: 0.326
AAATCAC: 0.309
ACCTGAC: 0.259
ATGACCA: 0.351
CAGCTGA: 0.264

Sample 2
Target: RNA binding protein fox-1 homolog 2, RRM domain, GST-SBP tag (RBFOX2, Homo sapiens, UniProt O43251-10, residues 100-194)
Technique: RNA Bind-n-Seq
Form: RNA
Sample: in vitro
Tested at: 365 nM
Setting: natural RNA segment, single round, ends assumed
Baseline: no-protein control
Direction: higher = stronger binding
Endpoint: RBNS enrichment (R)
Constant ends, left off below: GGGAGUUCUACAGUCCGACGAUC … UGGAAUUCUCGGGUGCCAA
Residues (chain): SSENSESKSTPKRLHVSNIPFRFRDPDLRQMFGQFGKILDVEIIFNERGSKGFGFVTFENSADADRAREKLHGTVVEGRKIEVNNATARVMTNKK
AAUAUACCAAAAAUGUUAUUGUAAUUUUAAUGAGCAUGUAAAGAGUGUAUCAAAAAUUGAUGGGAUAUUAGUGUUAGGUUUUGCUUAAAUGAAAAUUAAUAAAUUCAAAA: 5.08
UUUUUUUGAGACGGAGUUUUGCUCUUGUUACCCAGGCUGGAGUGCAGUGGCGUGAUCUUGGCUCACUGCAACUUCCGUCUCCCGGGUUCAAGUGAUUCUCCUGCCUCAGC: 0.553
AGAUAUGAUUCUCAGUGGGAUUUUGGAAACUUUGAUUGCUCAAGCUCACCCUUCUUAACAUUCUGUAAUGGUUACAGAUGAGAAUGGAAAACACAUAUUUUAUGGAUGAG: 0.36
CAAUGGUGACUGAUCUCGAAUCAGGUCUUUUCCUGCAAGGACUAUGGAGUUCCAUUCUUGACAUCUACUUUGGACCAAGGAGCAUCCCUAGUUCUUCAUAGGGACUCUUA: 0.252
ACCGAGAAAGUAAUUAUAGAGAAAUAAGCUGGUACGUCCAGCUUCAUUACUAUCCCUUGGGCUAACCAGCAAGAAGAUUGUACAUCACAGAACUGGAUGAGCCAAACAGC: 0.322
ACCAGGAGUCACUGAGCCAAUGACUAUCAGCUGCUGACUAAUCUUCACACUGUAGUUAUUGCUUCAUUUACAGGUCCUCUGUGCUUAAUUGCUGUUUUUGUUGCUGUAGU: 0.551

Sample 3
Target: Prothrombin, mature alpha-thrombin (F2, Homo sapiens, UniProt P00734)
Technique: aptamer microarray, sandwich
Form: DNA with 2'F-ANA
Sample: in vitro
Tested at: 200 nM
Setting: whole 15-mer aptamer, many near background
With: Cy3 exosite-II aptamer, 400 nM
Direction: higher = stronger binding
Endpoint: mean fluorescence intensity
Strand: GGTTGGTGTGGTTGG
2'F-ANA at 2 3 4 8 11 13: 496 a.u.
2'F-ANA at 7 10 11 13 14: 137 a.u.
2'F-ANA at 3 4 5 6 8 9 10 11 12 15: 72.8 a.u.
2'F-ANA at 1 2 5 7 8 11 13: 53.2 a.u.
2'F-ANA at 2 3 7 8 11 15: 906 a.u.
2'F-ANA at 2 4 5 6 7 8 9 11 12 13 15: 74.3 a.u.
2'F-ANA at 1 4 5 7 9 10 13: 50.8 a.u.

Further values, each from its own experiment
PhoQ, residues 284 288 289 292 302 303 SCKMEA  fold induction (PhoP, residues 12 14 15 18 19 YHFSH (Escherichia coli, UniProt P23836); Sort-seq, measured: YFP reporter; E. coli; PhoQ-PhoP variant library, with: 10 µM Mg2+; baseline: high Mg2+ state, higher = stronger signaling): 1.62

For quick reference, copied from above (sample 3):
2'F-ANA at 7 10 11 13 14: 137 a.u.
